# Results of several laboratories.
# Numbered parts are unrelated; each lists some results of a single study.

# Study 1
# Target: Interferon regulatory factor 7, full length, phosphomimetic (IRF7, Homo sapiens, UniProt Q92985, residues 1-503, S101K/S471D/S472D/S475D/S476D/S477D/S483D/S484D/S487D)
# Method: protein-binding microarray
# Form: double-stranded DNA, one strand shown
# Medium: in vitro
# Concentration: 250 nM
# Setting: 60-bp whole probe
# Together with: salmon DNA 0.4 mg/ml
# Relative to: random background probes
# Reading: higher = stronger binding
# All sequences stand within: GCCTAGCAC … GTGCTAGGTCTTGATTCGCTTGACGCTGCTG
# Target sequence (chain): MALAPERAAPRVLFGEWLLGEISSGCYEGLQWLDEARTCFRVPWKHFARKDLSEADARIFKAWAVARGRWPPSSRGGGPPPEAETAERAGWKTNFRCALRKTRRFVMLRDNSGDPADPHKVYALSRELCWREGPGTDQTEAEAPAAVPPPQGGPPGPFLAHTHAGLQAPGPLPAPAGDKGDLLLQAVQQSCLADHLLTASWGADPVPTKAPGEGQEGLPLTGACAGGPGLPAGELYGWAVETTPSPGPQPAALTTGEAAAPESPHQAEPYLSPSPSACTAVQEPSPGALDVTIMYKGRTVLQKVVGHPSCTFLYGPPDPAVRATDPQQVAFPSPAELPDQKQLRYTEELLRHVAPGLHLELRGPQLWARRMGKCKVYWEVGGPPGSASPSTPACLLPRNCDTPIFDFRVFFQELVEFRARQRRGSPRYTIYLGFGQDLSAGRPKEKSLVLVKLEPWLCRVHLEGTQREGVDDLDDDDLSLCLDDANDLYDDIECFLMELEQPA
Strand,log fluorescence
TTAGATTTCAGTTCCTATTA,2.01 z-score
TCATGTTTAAGAATGTTACT,0.53 z-score
TTAGGTTTCGTTTCCGGTTA,13.2 z-score
CCAGACTGCAGAGCAAGATC,-0.795 z-score
TAAGGTTTCCTTTCCCTTTA,5.52 z-score

# Study 2
# Target: Replicase polyprotein 1ab, nsp13 helicase (rep, Severe acute respiratory syndrome coronavirus 2, UniProt P0DTD1)
# Action: inhibitor
# Concentration: 20 µM
Structure (SMILES),inhibition
CC(C)N(CCCNC(=O)Nc1ccc(C(C)(C)C)cc1)C[C@H]1O[C@@H](n2ccc3c(N)ncnc32)[C@H](O)[C@@H]1O,6.45%
Cn1c(COP(=O)(NCCBr)NCCBr)cnc1[N+](=O)[O-],-2.29%
N[C@@H](Cc1ccc(O)cc1)C(=O)NCC(=O)NCC(=O)O,-1.09%
CCc1cccc(N(C)C(N)=Nc2cccc3ccccc23)c1,5.37%
CC(C)COC(=O)c1ccc(N)cc1,8.04%
C[C@H](c1ccc2ccc(O[C@H]3CC[C@@H](C(F)(F)F)CC3)c(C(F)(F)F)c2c1)N1C2CCC1CC(C(=O)O)C2 (stereo partly drawn),4.3%
Oc1c(CN2CCCC2)cc(COCc2ccccc2)c2cccnc12,-0.73%
O=C(OCCO)c1ccccc1O,-0.49%
COc1ccc(-c2nc(N3CCOCC3)c3sc(CN(C)c4ncc(C(=O)NO)cn4)cc3n2)cn1,12.2%
Cc1cc(C)nc(SCC(=O)Nc2ncc(Cc3cccc4ccccc34)s2)n1,-0.38%
C[C@@H](O)[C@H]1C(=O)N2C(C(=O)O)=C([C@H]3CCCO3)S[C@H]12,0.63%
CC(=O)NCC(=O)N1[C@@H]2CC[C@H]1c1ccc(Nc3ncc(C(F)(F)F)c(NC4CCC4)n3)cc12,0.31%
CCOC(=O)CNC(=O)[C@@H]1CCCN1C(=O)Cc1ccccc1,4.28%
C[C@]12C[C@H](O)[C@H]3[C@@H](CCC4=CC(=O)CC[C@@]43C)[C@@H]1CC[C@@H]2C(=O)CO,1.46%
COC(=O)[C@@H](N)Cc1ccc(O)c(O)c1,0.58%

# Study 3
# Target: Histone acetyltransferase KAT6A, winged helix 1, GST fusion (KAT6A, Homo sapiens, UniProt Q92794, residues 1-85)
# Method: protein binding microarray
# Form: double-stranded DNA, one strand shown
# Medium: in vitro
# Concentration: not given
# Setting: 8-mer, flanks averaged, mean of 2 arrays, mostly near background
# Relative to: not given
# Reading: higher = stronger binding
# Target sequence (chain): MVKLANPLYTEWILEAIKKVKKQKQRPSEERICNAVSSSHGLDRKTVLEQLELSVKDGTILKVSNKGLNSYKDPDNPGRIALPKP
Strand,E-score
CTCCAAAC,-0.08
GGGCGTAA,0.204
GAACGCTC,0.107
AGAGATTA,-0.138
CCCGACCA,-0.0245
TAATCAGA,-0.0642
AGGACCCG,0.217
ATTTCTCC,-0.0482

# Mixed results
# Organism: SARS-CoV-2
# Read-out: cytopathic effect
# Cell line: Vero E6
# Concentration: 10 µM
Structure (SMILES),inhibition
NC(=S)N/N=C/c1coc2ccccc2c1=O,2.3%
Oc1cc2c(cc1O)CN(C(=S)NCCc1ccc(Cl)cc1)CCC2,12.4%

# Excerpt of the above (study 1):
Strand,log fluorescence
TCATGTTTAAGAATGTTACT,0.53 z-score
TAAGGTTTCCTTTCCCTTTA,5.52 z-score
CCAGACTGCAGAGCAAGATC,-0.795 z-score
TTAGATTTCAGTTCCTATTA,2.01 z-score
